Published values gathered from unrelated publications.
Lines come from different studies, so protocols differ. Values joined by “and” are separate records of one study, mostly repeats; a detail may differ. Numbers after ± are the reported error.

Compound = CC(C)C[C@@H](NC(=O)[C@@H](CCCNC(=N)N)NC(=O)[C@@H](Cc1c[nH]cn1)NC(=O)[C@@H](Cc1c[nH]c2ccccc12)NC(=O)[C@@H](Cc1c[nH]cn1)NC(=O)[C@@H](Cc1ccccc1)NC(=O)[C@H](NC(=O)[C@@H](Cc1ccc(O)cc1)NC(=O)CNC(=O)CNC(=O)CCOCCOCCOCCNC(=O)CN1CCN(CC(=O)O)CCN(CC(=O)O)CC1)[C@H](C)O)C(=O)N[C@H](CC(N)=O)C(=O)N1CCC[C@@H]1C(=O)O [gallium-68 labelled]; system = C57BL/6 mice, male, pancreas; conditions = intravenous, 1.85 MBq, 60 min, added: blocking antibody; measurement = tissue uptake; result = 0.91 ± 0.34 %ID/g
Compound = CN1Cc2cc(Cl)ccc2-n2c(nnc2C2CCN(c3cccc([18F])n3)CC2)C1; system = C57BL/6 mouse male, kidney; conditions = intravenous, 3.7 MBq, 30 min; measurement = tissue uptake; result = 11.6 ± 2.5 %ID/g
Compound = Cc1ccc(N2CCN(C)C3(CC3)C2)cc1C(=O)N[C@H](C)c1cc(-c2cnn(C)c2)nc2ccccc12; tested on = Vero E6; conditions = 250 µM; measurement = viability; result = 7.08% and 5.83% and 6.04%
Compound = O=C1NC2(CC2)COc2ncc(F)cc2[C@H]2COCCN2c2ccn3ncc1c3n2; system = Sprague-Dawley rat, male, brain; conditions = oral, 2.5 mg/kg/day, 4 weeks; measurement = organ weight; result = 2.16 ± 0.08 g
Compound = CC[C@H](C)[C@H](NC(=O)[C@H](CCCNC(=N)N)NC(=O)[C@H](CCCCN)NC(=O)[C@H](Cc1ccc(O)cc1)NC(=O)[C@H](CC(=O)O)NC(=O)[C@H](C)NC(=O)CNC(=O)CCOCCOCCOCCNC(=O)CN1CCN(CC(=O)O)CCN(CC(=O)O)CCN(CC(=O)O)CC1)C(=O)N[C@H](C(=O)N[C@@H](CC(C)C)C(=O)N[C@@H](CCCCN)C(=O)N[C@H](C(=O)N[C@@H](CC(N)=O)C(N)=O)C(C)C)[C@@H](C)O [copper-64 labelled]; assay = ex vivo gamma counting; system = male C57BL/6J mouse, B16-F10 tumour, intestinal lymph node; conditions = intravenous, 1.85 MBq, 20 min; measurement = tissue uptake; result = 0.558 ± 0.249 %ID/g
Compound = CCCC[C@H]1C(=O)N(C)[C@@H](CCCC)C(=O)N[C@@H](CCCNC(=O)CN2CCN(CC(=O)O)CCN(CC(=O)O)CCN(CC(=O)O)CC2)C(=O)N[C@H](C(=O)NCC(N)=O)CSCC(=O)N[C@@H](Cc2ccc(O)cc2)C(=O)N(C)[C@@H](C)C(=O)N[C@@H](CC(N)=O)C(=O)N2CCC[C@H]2C(=O)N[C@@H](Cc2c[nH]cn2)C(=O)N[C@@H](CC(C)C)C(=O)N(C)CC(=O)N[C@@H](Cc2c[nH]c3ccccc23)C(=O)N[C@@H](CO)C(=O)N[C@@H](Cc2c[nH]c3ccccc23)C(=O)N1C [gallium-68 labelled]; system = NOD/SCID mice with CHO-hPD-L1 xenograft, brain; conditions = 10 min post injection; measurement = tissue uptake; result = 0.51 ± 0.08 %ID/g
Compound = CC[C@H](C)[C@H](NC(=O)[C@H](CCCCN)NC(=O)CNC(=O)[C@H](CC(C)C)NC(=O)[C@H](Cc1ccccc1)NC(=O)[C@H](CCCCN)NC(=O)[C@H](CO)NC(=O)[C@H](Cc1ccccc1)NC(=O)[C@H](Cc1c[nH]c2ccccc12)NC(=O)[C@H](CCC(N)=O)NC(=O)[C@@H](NC(=O)[C@H](Cc1ccccc1)NC(=O)CCCCCNC(=O)CN1CCN(CC(=O)O)CCN(CC(=O)O)CCN(CC(=O)O)CC1)C(C)C)C(=O)N[C@@H](CCC(=O)O)C(=O)N1CCC[C@H]1C(=O)N[C@@H](CC(=O)O)C(=O)N[C@H](C(=O)N[C@@H](CO)C(=O)N[C@@H](CCC(N)=O)C(=O)N[C@H](C(=O)N[C@@H](CCC(N)=O)C(=O)N[C@@H](CC(=O)O)C(=O)N1CCC[C@H]1C(=O)N[C@@H](CC(N)=O)C(=O)N[C@@H](CC(=O)O)C(=O)N[C@@H](CCC(N)=O)C(=O)N[C@@H](Cc1ccc(O)cc1)C(=O)N[C@@H](CCC(=O)O)C(=O)N1CCC[C@H]1C(=O)N[C@@H](Cc1ccccc1)C(=O)O)C(C)C)C(C)C [copper-64 labelled]; system = C57BL/6 mice, male, tumour-free, small intestine; conditions = 4 h; measurement = tissue uptake; result = 9.98 ± 1.7 %ID/g
Compound = C[C@H](O)[C@@H](NC(=O)[C@H]1CCCN1C(=O)[C@@H](CCCCN)NC(=O)[C@@H](CO)NC(=O)[C@@H](Cc1ccc(O)cc1)NC(=O)[C@@H](CC(N)=O)NC(=O)CCOCCOCCOCCNC(=O)CN1CCN(CC(=O)O)CCN(CC(=O)O)CCN(CC(=O)O)CC1)C(=O)N[C@H](CC(=O)O)C(=O)N[C@H](CCCNC(=N)N)C(=O)N[C@H](CCC(N)=O)C(=O)N[C@H](Cc1ccc(O)cc1)C(=O)N[C@H](Cc1c[nH]cn1)C(=O)N[C@H](Cc1ccccc1)C(N)=O [copper-64 labelled]; system = C57BL/6J mice, lung; conditions = intravenous, 1.85 MBq, 0.6667 h, radiolabelled; measurement = tissue uptake; result = 1.31 ± 0.07 %ID/g
Compound = CSCC[C@H](NC(=O)CNC(=O)[C@H](CCCCN)NC(=O)[C@H](CC(C)C)NC(=O)[C@@H]1CCCN1C(=O)[C@H](CO)NC(=O)[C@H](Cc1c[nH]cn1)NC(=O)[C@H](Cc1c[nH]c2ccccc12)NC(=O)[C@H](CCCNC(=N)N)NC(=O)[C@H](CC(C)C)NC(=O)[C@H](CCCNC(=N)N)NC(=O)[C@H](Cc1c[nH]c2ccccc12)NC(=O)[C@H](CS)NC(=O)CCCCCNC(=O)CN1CCN(CC(=O)O)CCN(CC(=O)O)CCN(CC(=O)O)CC1)C(=O)O [copper-64 labelled]; assay = ex vivo biodistribution; system = male C57BL/6J mice, bone; conditions = intravenous, 1.85 MBq, 18 h, B16-F10 tumour-bearing; measurement = tissue uptake; result = 1.29 %ID/g
Compound = CC[C@H](C)[C@H](NC(=O)[C@H](CCCNC(=N)N)NC(=O)[C@H](CCCCN)NC(=O)[C@H](Cc1ccc(O)cc1)NC(=O)[C@H](CC(=O)O)NC(=O)[C@H](C)NC(=O)CNC(=O)CCOCCOCCOCCNC(=O)CN1CCN(CC(=O)O)CCN(CC(=O)O)CCN(CC(=O)O)CC1)C(=O)N[C@H](C(=O)N[C@H](C(=O)N[C@@H](CCCCN)C(=O)N[C@H](C(=O)N[C@@H](CC(N)=O)C(N)=O)C(C)C)C(C)C)[C@@H](C)O [copper-64 labelled]; assay = ex vivo gamma counting; system = C57BL/6J male mice, B16-F10 tumour, muscle; conditions = intravenous, 1.85 MBq, 40 min; measurement = tissue uptake; result = 0.301 ± 0.013 %ID/g
Compound = Cc1ccc(OCCN(C)C)cc1C(=O)N[C@H](C)c1cc(-c2cnn(C3CNC3)c2)nc2ccccc12; tested on = Vero E6; conditions = 250 µM; measurement = viability; result = 97.3% and 99.6%

Excerpt of the above:
Compound = C[C@H](O)[C@@H](NC(=O)[C@H]1CCCN1C(=O)[C@@H](CCCCN)NC(=O)[C@@H](CO)NC(=O)[C@@H](Cc1ccc(O)cc1)NC(=O)[C@@H](CC(N)=O)NC(=O)CCOCCOCCOCCNC(=O)CN1CCN(CC(=O)O)CCN(CC(=O)O)CCN(CC(=O)O)CC1)C(=O)N[C@H](CC(=O)O)C(=O)N[C@H](CCCNC(=N)N)C(=O)N[C@H](CCC(N)=O)C(=O)N[C@H](Cc1ccc(O)cc1)C(=O)N[C@H](Cc1c[nH]cn1)C(=O)N[C@H](Cc1ccccc1)C(N)=O [copper-64 labelled]; system = C57BL/6J mice, lung; conditions = intravenous, 1.85 MBq, 0.6667 h, radiolabelled; measurement = tissue uptake; result = 1.31 ± 0.07 %ID/g
